Measured values gathered from unrelated publications.
A part holds a random share of what one study measured. Substitutions count along the parent as printed.

Series 1 — technique: RNA Bind-n-Seq; molecule type: RNA; sample: in vitro; tested at: 365 nM; relative to: no-protein control; direction: higher = stronger binding
Target: RNA binding protein fox-1 homolog 2, RRM domain, GST-SBP tag (RBFOX2, Homo sapiens, UniProt O43251-10, residues 100-194)
Notes: natural RNA segment, single round, ends assumed
All sequences stand within: GGGAGUUCUACAGUCCGACGAUC … UGGAAUUCUCGGGUGCCAA
Construct (chain): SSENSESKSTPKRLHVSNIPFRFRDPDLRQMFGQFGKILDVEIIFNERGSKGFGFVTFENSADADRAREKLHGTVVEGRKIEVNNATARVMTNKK
| Oligonucleotide | RBNS enrichment (R) |
| --- | --- |
| CCGCAGUUCCCCGCUCUGUACUGUAUUUUGCCAUUUCCCGUAGUCAGGUGUUCUGCAGGGUCUCUUCACAUGAAGCUGCCAAGCGUGAGUCAGCCCAUAAGCAAAGUCAA | 0.498 |
| CCCUUGGCUCCCUUGGGCAGACAGCAGGCUUAGGCCAUUGAUAUCGCAGUUCUUCCUAUCAGCUUCAGUGACCCAGGGUCUGAACUGCCUCCAUCCUAGGGCAACCUGGG | 0.247 |
| AGAGACGGAAGGAGCACCUUGACAGACUUGUGUGAGUCUUCUCGAAGGAGGGUUGACUCAGAACCCAGAGACAAUACAAAACCCCUCACUUCCUCUGAGAGGGCCAAAUG | 0.271 |
| UUUUUUCUCUUUGGUUCUUGAAUAGCUUAGUUUCUUUAAUAACAAGUCAAACUUUAUUACAACAAUAACUGAAGUUAUUCUUUUAGGUUCUCGUGAAAUUCUCACUGAAA | 0.504 |
| AGCGAGGGAAAUGUAUGGAUUAUAUUAAAUGUGGGUUACUACACAAGAGGCCGAACAUUCCAAGUAGCAGAAGAGAGGGUCUCUCAACUCUGCUCCUCACCUGCAGAAGC | 0.232 |
| GUGGUAUAUCUGUCCCUAUUAAAUAAGUGUUGUUUUCUCCUCUUUAAUAUUGCUGUGAACAGUGGUGCCCAUUGUAGCAUAUGUUUGAUUUUUUUUUAUUAUUUCAUAAG | 0.86 |
| GUCCCCAUGAAAUAAGAUGAAACUGAUUCCAUGCACUAGUACAUGUAGGCUUCUCCCUUGUGCAAAGCUUAGCAAUUUGUAGGAAACUUUGAUCUUUUUGUCCAAGAAAA | 0.389 |
| ACUUACAGAAUUAAAGAUGGCCCAUAAGGAAUUCCAGACCAAUAUUUCUUCCUGCGGUUUAUUCUAUGUUUUAUAUAUUAUCUAAAUAUAUGUAUAUGCUGUGUCAUACU | 0.773 |

Series 2 — target: CCNE2, cyclin fold, Cln2 fusion (human); technique: yeast growth competition, sequencing; sample: yeast; notes: strong parent motif; relative to: not given; direction: higher = stronger binding
Parent: CDKN1A docking peptide (human); SKACRRLFGPVDS; partner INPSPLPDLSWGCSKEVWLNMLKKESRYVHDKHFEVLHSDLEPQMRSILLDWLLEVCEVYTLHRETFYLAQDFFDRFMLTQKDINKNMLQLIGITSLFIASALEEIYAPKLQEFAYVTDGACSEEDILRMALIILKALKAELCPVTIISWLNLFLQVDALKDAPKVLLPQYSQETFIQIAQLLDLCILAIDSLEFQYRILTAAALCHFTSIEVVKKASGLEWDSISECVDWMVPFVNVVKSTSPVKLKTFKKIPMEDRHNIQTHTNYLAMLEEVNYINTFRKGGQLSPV
| Change | normalised enrichment score |
| --- | --- |
| SKACRRLFGPVDA [S13A] | 4.16 |
| SKACRRWFGPVDS [L7W] | 0.768 |
| SKACRRLKGPVDS [F8K] | 0.244 |
| SKRCRRLFGPVDS [A3R] | -0.039 |
| SKACRRLFHPVDS [G9H] | 3.77 |
| SKACRWLFGPVDS [R6W] | 1.12 |
| SKICRRLFGPVDS [A3I] | 1.84 |
| SKACRRLFGPVKS [D12K] | 2.64 |
| SKACRILFGPVDS [R6I] | 2.22 |
| SKACRRLFGQVDS [P10Q] | 2.85 |
| SKACRRLFGPVNS [D12N] | 3.32 |
| SKACRRLFGPVHS [D12H] | 2.94 |
| SKASRRLFGPVDS [C4S] | 0.819 |
| SKACRFLFGPVDS [R6F] | 0.962 |
| SKACRRLFGFVDS [P10F] | 1.95 |
| SRACRRLFGPVDS [K2R] | 3.44 |
| SKACRRRFGPVDS [L7R] | 0.366 |
| SKAHRRLFGPVDS [C4H] | 0.742 |
| SKACRRLGGPVDS [F8G] | 0.382 |
| SLACRRLFGPVDS [K2L] | 2.29 |
| SKACRRLFGVVDS [P10V] | 2.92 |
| SKACQRLFGPVDS [R5Q] | 0.202 |
| SKACRRGFGPVDS [L7G] | 0.156 |
| SKACRRLFGPFDS [V11F] | 3.95 |
| SKACRRLFGPVYS [D12Y] | 2.68 |

Series 3 — technique: universal PBM; molecule type: double-stranded DNA, one strand shown; sample: in vitro; tested at: not given; direction: higher = stronger binding
Target: Sal-like protein 4, full length isoform B (SALL4, Homo sapiens, UniProt Q9UJQ4-2, residues 1-616)
Notes: 8-mer, flanks averaged, mean of replicates
Construct (chain): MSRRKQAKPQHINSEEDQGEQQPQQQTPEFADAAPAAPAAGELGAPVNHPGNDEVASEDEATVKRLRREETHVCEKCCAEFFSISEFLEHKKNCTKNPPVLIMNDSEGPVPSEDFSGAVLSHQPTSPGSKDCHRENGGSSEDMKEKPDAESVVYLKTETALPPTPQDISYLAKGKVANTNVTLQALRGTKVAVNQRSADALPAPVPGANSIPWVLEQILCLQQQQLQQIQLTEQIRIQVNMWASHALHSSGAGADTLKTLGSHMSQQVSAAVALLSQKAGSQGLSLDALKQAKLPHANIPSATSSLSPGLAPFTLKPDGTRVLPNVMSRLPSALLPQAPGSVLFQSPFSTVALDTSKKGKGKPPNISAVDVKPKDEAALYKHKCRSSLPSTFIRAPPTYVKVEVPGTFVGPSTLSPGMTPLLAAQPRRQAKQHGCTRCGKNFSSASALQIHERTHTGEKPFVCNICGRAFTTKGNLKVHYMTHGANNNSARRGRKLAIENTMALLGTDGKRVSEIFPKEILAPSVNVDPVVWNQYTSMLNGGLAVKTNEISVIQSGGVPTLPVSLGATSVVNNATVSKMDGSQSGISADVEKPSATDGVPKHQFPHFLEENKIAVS
| Oligonucleotide | E-score |
| --- | --- |
| AACACCAT | 0.0528 |
| CTTAGCTA | -0.0158 |
| AGAGGCCT | -0.165 |
| GGCGTCGA | -0.0904 |
| ACAGACGT | -0.0322 |
| GTGGAGCA | -0.146 |
| AAATCCAG | 0.114 |
| AATTTTCG | 0.32 |
| CGGGCGGC | -0.398 |
| AACTCAAT | 0.128 |
| ACGTTAAT | 0.243 |
| CTTGTGCC | -0.123 |
| ACGATCCA | -0.0327 |
| GGGAGGTA | -0.195 |
| CACGTTAC | 0.0347 |
| AGCGATCC | -0.181 |
| GGGCCCCA | -0.313 |
| AAGCCTCG | -0.207 |
| GATAGTGC | -0.108 |
| ACTGAGAT | -0.00187 |
| AATCTGCG | -0.0884 |
| ACCTCTGG | -0.0835 |
| GAGGAAGC | -0.242 |
| ATCCTACA | 0.0549 |
| AAAGCCGC | -0.185 |

Series 4 — technique: protein binding microarray; molecule type: double-stranded DNA, one strand shown; sample: in vitro; tested at: not given; relative to: not given; direction: higher = stronger binding
Target: Histone acetyltransferase KAT6A, winged helix 1, GST fusion (KAT6A, Homo sapiens, UniProt Q92794, residues 1-85)
Notes: 8-mer, flanks averaged, mean of 2 arrays, mostly near background
Construct (chain): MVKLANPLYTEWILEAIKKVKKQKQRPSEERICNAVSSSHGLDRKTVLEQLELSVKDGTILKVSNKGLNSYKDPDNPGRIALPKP
| Oligonucleotide | E-score |
| --- | --- |
| ATAGCACC | -0.11 |
| ACCTCCAT | -0.0991 |
| ACTAACCG | 0.246 |
| ACAGGAGA | -0.184 |
| AGGGCTTC | -0.159 |
| ATCGTTCC | 0.0119 |
| AATCCTGT | -0.216 |
| GGTGCGAA | -0.0357 |
| ATCTACAG | -0.079 |
| CAAACAAA | -0.264 |
| GAACCTAA | 0.108 |
| TATACTCA | -0.0408 |
| CCGACTAG | 0.078 |
| ACTAGATA | -0.122 |
| ATTACATA | -0.253 |
| CCTCTAAG | -0.115 |
| ACACGCGC | 0.389 |
| TCTTGCCA | -0.287 |
| ACGTTCGA | -0.102 |
| ACCTCGCA | 0.0164 |
| AGGATCAT | -0.226 |
| TACTAGTA | -0.128 |
| AGATCCAA | -0.226 |
| GATCGCGA | 0.224 |
| AGTCACCC | -0.00945 |

Some of these lines once more (series 3):
| Oligonucleotide | E-score |
| --- | --- |
| GAGGAAGC | -0.242 |
| AGCGATCC | -0.181 |
| AATTTTCG | 0.32 |
| ACAGACGT | -0.0322 |
| AACACCAT | 0.0528 |
| AAAGCCGC | -0.185 |
| GTGGAGCA | -0.146 |
| AACTCAAT | 0.128 |
| AAATCCAG | 0.114 |
| ACGATCCA | -0.0327 |
| AATCTGCG | -0.0884 |
